Results gathered from unrelated publications.
Each line is one published result; not all experiments were run side by side.

CCCCOC(=O)N1CCN(C(=O)[C@H](CP(=O)(O)O)NC(=O)c2cc(N3CC[C@H](OC)C3)nc(-c3ccccc3)n2)CC1
median Tmax (healthy human, plasma; subcutaneous, 4 mg, added: rifampin 600 mg i.v.): 0.5 h

CC(C)(O)CNc1nc(Nc2ccnc(C(F)(F)F)c2)nc(-c2cccc(C(F)(F)F)n2)n1
median Tmax (human patients; oral, 100 mg once daily, cycle 1 day 1, added: consolidation chemotherapy): 2.08 h

CN(C)[C@@H](CCOc1cccc2ccccc12)c1ccccc1
median Tmax (healthy male humans, plasma; oral, 60 mg, added: udenafil 200 mg): 1 h

CN1C(=O)[C@@H](NC(=O)c2nnc(Cc3ccccc3)[nH]2)COc2ccccc21
median Tmax (human, male, whole blood; oral, 40 mg single dose, fed, high-fat meal): 3 h

N#Cc1ccnc(N2C(=O)CC[C@H]2C(=O)N(c2cncc(F)c2)[C@H](C(=O)NC2CC(F)(F)C2)c2ccccc2Cl)c1
median Tmax (human patients; oral, 500 mg once daily, cycle 1 day 1, added: induction chemotherapy): 3.99 h

CC[C@@H]1C(=O)N(C)c2cnc(Nc3ccc(C(=O)N[C@H]4CC[C@H](N5CCN(CC6CC6)CC5)CC4)cc3OC)nc2N1C(C)C
median Tmax (human, plasma; intravenous infusion, 300 mg over 2 h, first infusion): 1.97 h

NCCCS(=O)(=O)O
median Tmax (human, plasma; oral, 100 mg modified-release tablet, single dose): 4.5 h

Cn1c(-c2ccc(C(N)=O)cc2F)nnc1C(C)(C)Oc1c(F)cc(Cl)cc1F
median Tmax (young non-Japanese humans, plasma; oral, 2 mg once daily, last day of 14 days): 1.5 h

For quick reference, copied from above:
CN1C(=O)[C@@H](NC(=O)c2nnc(Cc3ccccc3)[nH]2)COc2ccccc21
median Tmax (human, male, whole blood; oral, 40 mg single dose, fed, high-fat meal): 3 h
